{"data": "Measurements of several laboratories", "note": "A part holds a random share of what one study measured."}
{"data": "Set 1", "target": "Interferon regulatory factor 7, full length, phosphomimetic (IRF7, Homo sapiens, UniProt Q92985, residues 1-503, S101K/S471D/S472D/S475D/S476D/S477D/S483D/S484D/S487D)", "method": "protein-binding microarray", "form": "double-stranded DNA, one strand shown", "sample": "in vitro", "tested at": "250 nM", "setting": "60-bp whole probe", "together with": "salmon DNA 0.4 mg/ml", "reference": "random background probes", "reading": "higher = stronger binding", "sequence of UniProt Q92985 (whole entry, unmodified, looked up)": "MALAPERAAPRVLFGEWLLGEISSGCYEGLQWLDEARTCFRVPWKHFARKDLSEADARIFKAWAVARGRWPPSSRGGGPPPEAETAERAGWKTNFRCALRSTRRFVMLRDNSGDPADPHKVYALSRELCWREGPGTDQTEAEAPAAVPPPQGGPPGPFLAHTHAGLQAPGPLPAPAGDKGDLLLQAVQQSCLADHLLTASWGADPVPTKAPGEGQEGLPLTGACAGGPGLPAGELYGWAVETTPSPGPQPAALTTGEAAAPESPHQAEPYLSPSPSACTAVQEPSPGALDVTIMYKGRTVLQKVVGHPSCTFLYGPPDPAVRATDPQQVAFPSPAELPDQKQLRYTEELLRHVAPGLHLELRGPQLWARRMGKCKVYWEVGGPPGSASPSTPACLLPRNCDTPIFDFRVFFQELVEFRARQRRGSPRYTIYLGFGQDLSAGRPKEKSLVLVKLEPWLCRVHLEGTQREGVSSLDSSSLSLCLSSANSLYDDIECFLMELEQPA"}
{"Strand": "GCCTAGCACTTAGGACTGCTTATCCATTAGTGCTAGGTCTTGATTCGCTTGACGCTGCTG", "log fluorescence": "0.186 z-score"}
{"Strand": "GCCTAGCACTGAGGTTTCGGGACTGGGTTAGTGCTAGTCTTGATTCGCTTGACGCTGCTG", "log fluorescence": "3.12 z-score"}
{"Strand": "GCCTAGCACTTCTGTATGGGCATTTTTCTAGTGCTAGTCTTGATTCGCTTGACGCTGCTG", "log fluorescence": "-1.14 z-score"}
{"data": "Set 2", "target": "Histone acetyltransferase KAT6A, winged helix 1, GST fusion (KAT6A, Homo sapiens, UniProt Q92794, residues 1-85)", "method": "protein binding microarray", "form": "double-stranded DNA, one strand shown", "sample": "in vitro", "tested at": "not given", "setting": "8-mer, flanks averaged, mean of 2 arrays, mostly near background", "reference": "not given", "reading": "higher = stronger binding", "Target sequence (chain)": "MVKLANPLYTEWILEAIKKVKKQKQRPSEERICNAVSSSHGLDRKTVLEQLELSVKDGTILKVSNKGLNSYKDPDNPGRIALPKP"}
{"Strand": "GGCGTTAA", "E-score": 0.224}
{"Strand": "AAACACGG", "E-score": 0.257}
{"Strand": "GGTGATCA", "E-score": -0.14}
{"Strand": "CATTGGCC", "E-score": -0.135}
{"data": "Single results of other studies", "SALL4 full length isoform B": "Sal-like protein 4, full length isoform B (SALL4, Homo sapiens, UniProt Q9UJQ4-2, residues 1-616)", "SALL4 full length isoform A": "Sal-like protein 4, full length isoform A (SALL4, Homo sapiens, UniProt Q9UJQ4, residues 1-1053)"}
{"Molecule": "TACTTGGA", "target": "SALL4 full length isoform B", "assay": "universal PBM", "system": "double-stranded DNA, one strand shown, in vitro", "conditions": "not given, 8-mer, flanks averaged, mean of replicates", "how to read": "higher = stronger binding", "endpoint": "E-score", "value": 0.15}
{"Molecule": "PhoQ, residues 284 288 289 292 302 303 TTSMTC", "target": "PhoP, residues 12 14 15 18 19 QQAYL (Escherichia coli, UniProt P23836)", "assay": "Sort-seq, refers to: YFP reporter", "system": "E. coli", "conditions": "PhoQ-PhoP variant library, together with: 10 µM Mg2+", "how to read": "reference: high Mg2+ state, higher = stronger signaling", "endpoint": "fold induction", "value": 5.47}
{"Molecule": "AGTCCAAA", "target": "SALL4 full length isoform B", "assay": "universal PBM", "system": "double-stranded DNA, one strand shown, in vitro", "conditions": "not given, 8-mer, flanks averaged, mean of replicates", "how to read": "higher = stronger binding", "endpoint": "E-score", "value": -0.0951}
{"Molecule": "ATCAGCTA", "target": "SALL4 full length isoform A", "assay": "universal PBM", "system": "double-stranded DNA, one strand shown, in vitro", "conditions": "600 nM, 8-mer, flanks averaged, mean of replicates", "how to read": "higher = stronger binding", "endpoint": "E-score", "value": 0.117}
{"Molecule": "GGACCGAC", "target": "SALL4 full length isoform A", "assay": "universal PBM", "system": "double-stranded DNA, one strand shown, in vitro", "conditions": "600 nM, 8-mer, flanks averaged, mean of replicates", "how to read": "higher = stronger binding", "endpoint": "E-score", "value": -0.344}
{"note": "Excerpt of the above (single results of other studies):"}
{"Molecule": "AGTCCAAA", "target": "SALL4 full length isoform B", "assay": "universal PBM", "system": "double-stranded DNA, one strand shown, in vitro", "conditions": "not given, 8-mer, flanks averaged, mean of replicates", "how to read": "higher = stronger binding", "endpoint": "E-score", "value": -0.0951}
